Results from different studies.
Protocols differ between the studies behind these lines. ± marks the error that the study gave.
HLA class I histocompatibility antigen, A alpha chain allele A*01:01: HLA class I histocompatibility antigen, A alpha chain, allele A*01:01 (Homo sapiens, UniProt P04439)
HLA class I histocompatibility antigen, A alpha chain allele A*26:01: HLA class I histocompatibility antigen, A alpha chain, allele A*26:01 (Homo sapiens, UniProt P04439)
MGLL: Monoglyceride lipase (MGLL, Homo sapiens, UniProt Q99685)
HLA class I histocompatibility antigen, A alpha chain allele A*02:01: HLA class I histocompatibility antigen, A alpha chain, allele A*02:01 (Homo sapiens, UniProt P04439)
HLA class I histocompatibility antigen, A alpha chain allele A*24:02: HLA class I histocompatibility antigen, A alpha chain, allele A*24:02 (Homo sapiens, UniProt P04439)

`CC[C@H](C)[C@H](NC(=O)[C@H](Cc1c[nH]cn1)NC(=O)CNC(=O)[C@H](Cc1ccc(O)cc1)NC(=O)[C@H](CCC(N)=O)NC(=O)[C@@H](N)Cc1c[nH]cn1)C(=O)N[C@@H](CC(C)C)C(=O)N[C@@H](CCC(N)=O)C(=O)N[C@@H](Cc1ccc(O)cc1)C(=O)O` gave an IC50 of 72.5 µM (HLA class I histocompatibility antigen, A alpha chain allele A*01:01; binding).
`OC[C@H]1O[C@@H](OCCc2ccccc2)[C@H](O)[C@@H](O)[C@H]1O` has an IC50 of 170 µM (lacI (Escherichia coli, UniProt P03023, D149A/N125A); inhibitor).
`C[N+]1(C)CCN(c2cccc(Cl)c2)CC1` gave an IC50 of 345 ± 224 µM (Nicotinic acetylcholine receptor alpha1/beta1/epsilon/delta (Mus musculus, UniProt P02716+P04756+P09690+P20782); ion current, inhibitor, two-electrode voltage clamp; Xenopus oocytes).
The IC50 of `CC[C@H](C)[C@H](NC(=O)[C@H](CCCCN)NC(=O)[C@H](Cc1ccccc1)NC(=O)[C@H](Cc1ccc(O)cc1)NC(=O)CNC(=O)[C@H](CC(=O)O)NC(=O)[C@@H](NC(=O)[C@H](CC(N)=O)NC(=O)[C@@H](N)CCCCN)[C@@H](C)CC)C(=O)N[C@@H](Cc1ccc(O)cc1)C(=O)O` is reported as > 70 µM (HLA class I histocompatibility antigen, A alpha chain allele A*26:01; peptide-MHC binding, radioligand competition binding).
The IC50 of `O=C(OC(C(F)(F)F)C(F)(F)F)N1CCC(C(O)(c2ccc3c(c2)OCO3)c2ccc3c(c2)OCO3)CC1` is reported as 0.022 µM (MGLL; enzyme activity, inhibitor; together with: FP-biotin 1 µM).
`CC[C@H](C)[C@H](NC(=O)[C@@H](NC(=O)[C@@H](NC(=O)[C@H](CC(N)=O)NC(=O)[C@@H](NC(=O)[C@H](C)NC(=O)[C@@H](N)CC(N)=O)[C@@H](C)O)C(C)C)C(C)C)C(=O)N[C@@H](CCCCN)C(=O)N[C@H](C(=O)O)C(C)C` gave an IC50 of 43.4 µM (HLA class I histocompatibility antigen, A alpha chain allele A*26:01; peptide-MHC binding, radioligand competition binding).
For `CC[C@H](C)[C@H](NC(=O)[C@@H]1CCCN1C(=O)[C@H](CCCCN)NC(=O)[C@H](Cc1ccc(O)cc1)NC(=O)[C@H](CCSC)NC(=O)[C@@H](N)CCCNC(=N)N)C(=O)N[C@H](C(=O)N[C@@H](Cc1c[nH]cn1)C(=O)N[C@@H](Cc1ccccc1)C(=O)O)[C@@H](C)O`, the IC50 was 63.4 µM (HLA class I histocompatibility antigen, A alpha chain allele A*02:01; binding).
With `CO[C@H]1C[C@H](O[C@@H]2/C(C)=C/C[C@@H]3C[C@@H](C[C@]4(CC[C@H](C)[C@@H](C5CCCCC5)O4)O3)OC(=O)[C@@H]3C=C(C)/C(=N/O)[C@H]4OC/C(=C\C=C\[C@@H]2C)[C@]43O)O[C@@H](C)[C@@H]1O` the IC50 was 0.9 ± 0.31 µM (NR1I2 (Homo sapiens, UniProt O75469)).
`C[C@@H](O)[C@H](NC(=O)[C@H](CO)NC(=O)[C@@H]1CCCN1C(=O)[C@H](CCC(=O)O)NC(=O)[C@H](Cc1ccccc1)NC(=O)[C@H](CCC(=O)O)NC(=O)[C@@H](N)CCC(=O)O)C(=O)N[C@@H](CCC(N)=O)C(=O)N[C@@H](Cc1ccc(O)cc1)C(=O)N[C@@H](CCC(=O)O)C(=O)N[C@@H](Cc1ccc(O)cc1)C(=O)O` has an IC50 of > 70 µM (HLA class I histocompatibility antigen, A alpha chain allele A*02:01; peptide-MHC binding, radioligand competition binding).
The IC50 of `CCCc1cc(C(=O)OC)c(NC(=O)C2CCN(C(C)=O)CC2)s1` is reported as 2.9 µM (DNA repair protein REV1, C-terminal domain (Homo sapiens, UniProt Q9UBZ9); inhibitor).
The IC50 of `CSCC[C@H](NC(=O)[C@@H](N)CCCCN)C(=O)N[C@@H](Cc1c[nH]c2ccccc12)C(=O)NCC(=O)N[C@@H](CCCCN)C(=O)N1CCC[C@H]1C(=O)N[C@@H](CCSC)C(=O)N[C@H](C(=O)N[C@@H](Cc1ccccc1)C(=O)O)[C@@H](C)O` is reported as 1.72 µM (HLA class I histocompatibility antigen, A alpha chain allele A*02:01; binding).
`COc1cc(C2=CCCCc3c2ccc(OC)c3OC(=O)CCCCCN2C(=O)C=CC2=O)cc(OC)c1OC` gave an IC50 of 3.8 ± 0.6 µM (Tubulin alpha-1B chain/TUBB2B (Bos taurus, UniProt P81947+Q6B856); tubulin polymerization, inhibitor, turbidimetric; 20 min, 30 °C, together with: tubulin 10 µM).
The IC50 of `NC(=S)Nc1ccccc1` is reported as > 50 µM (uncharacterized protein (Drosophila suzukii, UniProt A0AB39ZGK5); binding, bis-ANS competition fluorescence; pH 7.4, together with: bis-ANS).
The IC50 of `O=c1c(-c2ccccc2)c(O)c2cc(-c3cccc(-c4ccccc4)c3)cnc2n1O` is reported as 0.01 µM (Holliday junction resolvase (Fowlpox virus, UniProt Q9J546)).
For `Nc1c2c(nc3c1C(c1cccc([N+](=O)[O-])c1)c1ccc(OS(=O)(=O)c4ccc(F)cc4)cc1O3)CCCC2` (centres unmarked), the IC50 was 2.68 µM (Beta-secretase 1 (BACE1, Homo sapiens, UniProt P56817); enzyme activity, inhibitor).
`CC(C)C[C@H](NC(=O)[C@@H]1CCCN1C(=O)[C@H](Cc1c[nH]c2ccccc12)NC(=O)[C@H](CC(=O)O)NC(=O)[C@H](Cc1ccc(O)cc1)NC(=O)[C@@H](NC(=O)[C@@H](N)Cc1ccc(O)cc1)C(C)C)C(=O)N[C@H](C(=O)N[C@@H](Cc1ccccc1)C(=O)O)[C@@H](C)O` gave an IC50 of 0.566 µM (HLA class I histocompatibility antigen, A alpha chain allele A*24:02; binding).
For `CCCCC/C=C\C/C=C\C/C=C\C/C=C\CCCC(=O)C(F)(F)F`, the IC50 was 0.268 µM (MGLL; enzyme activity, inhibitor; together with: FP-biotin 1 µM).
For `C[C@]12CC[C@@H](O)C[C@@H]1CC[C@@H]1[C@@H]2CC[C@]2(C)[C@@H]([N+](=O)[O-])CC[C@@H]12`, the IC50 was 0.0122 ± 0.0001 µM (GABAA receptor, rat; radioligand binding; rat cerebral cortex homogenate; together with: 6.25 µM GABA).
`CN(C)C(=O)C(CCN1CCC(O)(c2ccc(Cl)cc2)CC1)(c1ccccc1)c1ccccc1` gave an IC50 of 16 ± 6.5 µM (Calcium-activated potassium channel subunit alpha-1, with LRRC26 γ1 subunit (KCNMA1, Homo sapiens, UniProt Q12791); BK channel conductance, inhibitor, inside-out patch clamp; BKα/γ1, Vm -20 mV, nominally Ca2+-free).
For `CC(=O)c1c(C)c2cnc(Nc3ccc(C4CCN(CCS(C)(=O)=O)CC4)cn3)nc2n(C2CCCC2)c1=O`, the IC50 was > 10 µM (Cytochrome P450 3A4 (CYP3A4, Homo sapiens, UniProt P08684); enzyme activity, inhibitor; human liver microsomes; together with: testosterone substrate).
The IC50 of `CC[C@H](C)[C@H](NC(=O)[C@H](CCCCN)NC(=O)[C@H](CO)NC(=O)[C@H](Cc1ccccc1)NC(=O)[C@H](CCSC)NC(=O)[C@@H](N)CCCCN)C(=O)N[C@@H](CCSC)C(=O)N[C@H](C(=O)N[C@@H](Cc1ccc(O)cc1)C(=O)O)[C@@H](C)O` is reported as 59.9 µM (HLA class I histocompatibility antigen, A alpha chain allele A*24:02; binding).
The IC50 of `NCCNCCNCCN` is reported as 1040 ± 827 µM (XDH (Homo sapiens, UniProt P47989); enzyme activity, inhibitor).
For `CNC(C)Cc1ccc2nonc2c1` (centres unmarked), the IC50 was 2330 ± 889 µM (SLC22A3 (Homo sapiens, UniProt O75751)).
`CC[C@H](C)[C@H](NC(=O)[C@@H]1CCCN1C(=O)[C@H](CC(N)=O)NC(=O)[C@H](CC(C)C)NC(=O)[C@@H](N)CCCNC(=N)N)C(=O)NCC(=O)N[C@@H](Cc1ccc(O)cc1)C(=O)N[C@@H](CO)C(=O)N[C@@H](Cc1ccc(O)cc1)C(=O)O` gave an IC50 of 0.786 µM (HLA class I histocompatibility antigen, A alpha chain allele A*01:01; binding).
`C[C@H]1CN(c2n[nH]c3nc(N[C@H]4CC[C@H](NS(=O)(=O)CCC(F)(F)F)CC4)ncc23)CCO1` gave an IC50 of ≥ 20 µM (PRKAR2B (Homo sapiens, UniProt P31323); biochemical).
For `CC[C@H](C)[C@H](NC(=O)[C@@H]1CCCN1C(=O)[C@H](Cc1c[nH]cn1)NC(=O)[C@H](CCCCN)NC(=O)[C@H](Cc1ccc(O)cc1)NC(=O)[C@@H](NC(=O)[C@@H](N)Cc1ccc(O)cc1)[C@@H](C)O)C(=O)N[C@@H](Cc1ccc(O)cc1)C(=O)N[C@@H](CC(C)C)C(=O)O`, the IC50 was 0.01 µM (HLA class I histocompatibility antigen, A alpha chain allele A*02:01; binding).
The IC50 of `COC(=O)C1CCN(C(=O)c2ccc(NCc3cnc4nc(N)nc(N)c4n3)cc2)CC1` is reported as > 100 µM (TYMS (Homo sapiens, UniProt P04818); inhibitor).
For `CC[C@H](C)[C@H](NC(=O)[C@H](Cc1c[nH]cn1)NC(=O)[C@H](CCCCN)NC(=O)[C@H](Cc1ccc(O)cc1)NC(=O)[C@@H](NC(=O)[C@@H](N)Cc1c[nH]cn1)C(C)C)C(=O)N[C@@H](CC(C)C)C(=O)N[C@H](C(=O)N[C@@H](Cc1ccccc1)C(=O)O)[C@@H](C)O`, the IC50 was 76.1 µM (HLA class I histocompatibility antigen, A alpha chain allele A*01:01; binding).
For `COc1cc(Nc2ncc(F)c(Nc3ccc4c(n3)NC(=O)C(C)(C)O4)n2)cc(OC)c1OC`, the IC50 was > 10 µM (TACR2 (Homo sapiens, UniProt P21452)).

Repeated from above:
`CC(C)C[C@H](NC(=O)[C@@H]1CCCN1C(=O)[C@H](Cc1c[nH]c2ccccc12)NC(=O)[C@H](CC(=O)O)NC(=O)[C@H](Cc1ccc(O)cc1)NC(=O)[C@@H](NC(=O)[C@@H](N)Cc1ccc(O)cc1)C(C)C)C(=O)N[C@H](C(=O)N[C@@H](Cc1ccccc1)C(=O)O)[C@@H](C)O` gave an IC50 of 0.566 µM (HLA class I histocompatibility antigen, A alpha chain allele A*24:02; binding).
For `CCCCC/C=C\C/C=C\C/C=C\C/C=C\CCCC(=O)C(F)(F)F`, the IC50 was 0.268 µM (MGLL; enzyme activity, inhibitor; together with: FP-biotin 1 µM).
